Published values gathered from unrelated publications.
Protocols differ between the studies behind these lines. ± marks the error that the study gave.
ALOX5: Polyunsaturated fatty acid 5-lipoxygenase (ALOX5, Homo sapiens, UniProt P09917)

Sequences of proteins named here, by UniProt entry; tags and fusion partners are left off. A change or cut given only in a name is not applied to a line headed by its entry. Residues count along the entry.
UniProt P09917, whole entry: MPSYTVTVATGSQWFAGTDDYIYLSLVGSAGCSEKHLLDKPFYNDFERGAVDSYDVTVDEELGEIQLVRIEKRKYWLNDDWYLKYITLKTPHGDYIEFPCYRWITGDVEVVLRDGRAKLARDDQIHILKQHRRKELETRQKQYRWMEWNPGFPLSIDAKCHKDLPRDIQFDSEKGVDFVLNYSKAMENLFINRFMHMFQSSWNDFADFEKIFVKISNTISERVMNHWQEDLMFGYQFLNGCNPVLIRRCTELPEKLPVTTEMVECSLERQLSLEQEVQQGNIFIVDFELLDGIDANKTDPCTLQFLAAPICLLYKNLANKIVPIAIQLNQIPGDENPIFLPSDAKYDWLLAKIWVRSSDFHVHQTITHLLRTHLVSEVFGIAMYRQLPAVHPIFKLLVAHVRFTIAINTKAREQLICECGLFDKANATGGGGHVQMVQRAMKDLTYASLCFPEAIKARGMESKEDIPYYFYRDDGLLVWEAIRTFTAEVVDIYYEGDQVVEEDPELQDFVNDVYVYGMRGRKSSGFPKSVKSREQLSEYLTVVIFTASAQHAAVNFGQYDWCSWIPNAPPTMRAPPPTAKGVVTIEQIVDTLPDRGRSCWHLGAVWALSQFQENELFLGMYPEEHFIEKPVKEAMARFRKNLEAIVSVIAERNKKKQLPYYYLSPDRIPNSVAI
UniProt P51812, whole entry: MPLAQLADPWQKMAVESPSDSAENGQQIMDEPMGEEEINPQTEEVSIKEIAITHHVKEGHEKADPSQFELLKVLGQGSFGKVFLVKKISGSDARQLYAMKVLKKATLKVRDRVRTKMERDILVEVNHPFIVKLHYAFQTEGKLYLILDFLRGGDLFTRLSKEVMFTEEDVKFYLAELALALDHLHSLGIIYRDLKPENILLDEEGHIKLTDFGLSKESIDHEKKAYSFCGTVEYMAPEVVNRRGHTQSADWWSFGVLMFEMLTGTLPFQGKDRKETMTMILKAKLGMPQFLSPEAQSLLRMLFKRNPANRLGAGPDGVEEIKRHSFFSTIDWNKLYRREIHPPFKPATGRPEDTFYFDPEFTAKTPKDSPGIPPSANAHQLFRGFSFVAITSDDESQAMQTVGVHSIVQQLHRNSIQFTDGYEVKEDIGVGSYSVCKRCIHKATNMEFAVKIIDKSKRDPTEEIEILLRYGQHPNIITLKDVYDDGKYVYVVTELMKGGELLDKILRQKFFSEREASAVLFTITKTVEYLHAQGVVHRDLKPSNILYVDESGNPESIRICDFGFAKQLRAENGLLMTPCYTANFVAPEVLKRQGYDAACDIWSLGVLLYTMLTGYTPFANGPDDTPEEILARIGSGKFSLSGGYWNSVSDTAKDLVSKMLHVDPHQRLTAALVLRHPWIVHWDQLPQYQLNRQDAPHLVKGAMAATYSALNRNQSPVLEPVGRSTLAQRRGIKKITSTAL
UniProt P16083, whole entry: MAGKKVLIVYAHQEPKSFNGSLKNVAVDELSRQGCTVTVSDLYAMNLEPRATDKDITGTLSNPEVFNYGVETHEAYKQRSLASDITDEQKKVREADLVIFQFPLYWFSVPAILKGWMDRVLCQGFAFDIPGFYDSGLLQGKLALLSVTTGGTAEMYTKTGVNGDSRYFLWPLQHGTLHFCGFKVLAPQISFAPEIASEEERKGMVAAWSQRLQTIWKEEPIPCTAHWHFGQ
UniProt Q00960, 27-1482 limits assumed: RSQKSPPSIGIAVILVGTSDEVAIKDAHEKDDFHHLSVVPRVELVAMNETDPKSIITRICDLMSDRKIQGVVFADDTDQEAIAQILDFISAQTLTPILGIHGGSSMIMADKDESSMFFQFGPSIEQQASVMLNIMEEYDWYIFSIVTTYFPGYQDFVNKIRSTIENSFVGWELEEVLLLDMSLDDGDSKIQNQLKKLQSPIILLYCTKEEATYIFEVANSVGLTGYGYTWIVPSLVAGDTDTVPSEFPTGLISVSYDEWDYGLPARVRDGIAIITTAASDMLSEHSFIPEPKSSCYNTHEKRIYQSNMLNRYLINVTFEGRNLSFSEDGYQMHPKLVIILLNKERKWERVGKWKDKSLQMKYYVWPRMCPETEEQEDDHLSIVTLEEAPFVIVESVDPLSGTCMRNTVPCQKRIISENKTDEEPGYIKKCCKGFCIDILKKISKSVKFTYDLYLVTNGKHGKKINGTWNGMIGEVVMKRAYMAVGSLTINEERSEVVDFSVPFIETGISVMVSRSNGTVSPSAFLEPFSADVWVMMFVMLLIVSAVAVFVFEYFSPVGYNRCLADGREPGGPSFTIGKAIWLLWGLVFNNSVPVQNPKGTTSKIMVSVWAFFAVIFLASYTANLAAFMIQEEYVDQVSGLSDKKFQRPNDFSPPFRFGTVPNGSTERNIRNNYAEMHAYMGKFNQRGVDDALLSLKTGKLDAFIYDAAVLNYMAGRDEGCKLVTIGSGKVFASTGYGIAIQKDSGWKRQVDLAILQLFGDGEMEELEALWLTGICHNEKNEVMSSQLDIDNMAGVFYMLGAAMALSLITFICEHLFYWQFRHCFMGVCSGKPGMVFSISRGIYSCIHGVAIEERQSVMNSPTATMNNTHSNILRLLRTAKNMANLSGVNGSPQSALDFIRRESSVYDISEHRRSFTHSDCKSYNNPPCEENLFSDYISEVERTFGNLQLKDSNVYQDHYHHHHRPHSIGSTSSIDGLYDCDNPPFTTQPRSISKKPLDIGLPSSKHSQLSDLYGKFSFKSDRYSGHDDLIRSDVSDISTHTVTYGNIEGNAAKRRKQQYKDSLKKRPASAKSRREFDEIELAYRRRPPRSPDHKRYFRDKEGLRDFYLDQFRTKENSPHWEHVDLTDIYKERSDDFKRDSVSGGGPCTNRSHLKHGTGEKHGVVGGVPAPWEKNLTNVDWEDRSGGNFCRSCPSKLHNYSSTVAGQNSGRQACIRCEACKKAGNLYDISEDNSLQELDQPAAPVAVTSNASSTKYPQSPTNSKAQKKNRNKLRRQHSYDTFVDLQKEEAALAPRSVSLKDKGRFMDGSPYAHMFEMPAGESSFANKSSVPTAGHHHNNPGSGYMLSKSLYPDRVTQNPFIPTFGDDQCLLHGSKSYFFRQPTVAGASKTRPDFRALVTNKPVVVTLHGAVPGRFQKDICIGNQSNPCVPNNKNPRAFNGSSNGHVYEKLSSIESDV
UniProt A0A0D3D890, 1-1525: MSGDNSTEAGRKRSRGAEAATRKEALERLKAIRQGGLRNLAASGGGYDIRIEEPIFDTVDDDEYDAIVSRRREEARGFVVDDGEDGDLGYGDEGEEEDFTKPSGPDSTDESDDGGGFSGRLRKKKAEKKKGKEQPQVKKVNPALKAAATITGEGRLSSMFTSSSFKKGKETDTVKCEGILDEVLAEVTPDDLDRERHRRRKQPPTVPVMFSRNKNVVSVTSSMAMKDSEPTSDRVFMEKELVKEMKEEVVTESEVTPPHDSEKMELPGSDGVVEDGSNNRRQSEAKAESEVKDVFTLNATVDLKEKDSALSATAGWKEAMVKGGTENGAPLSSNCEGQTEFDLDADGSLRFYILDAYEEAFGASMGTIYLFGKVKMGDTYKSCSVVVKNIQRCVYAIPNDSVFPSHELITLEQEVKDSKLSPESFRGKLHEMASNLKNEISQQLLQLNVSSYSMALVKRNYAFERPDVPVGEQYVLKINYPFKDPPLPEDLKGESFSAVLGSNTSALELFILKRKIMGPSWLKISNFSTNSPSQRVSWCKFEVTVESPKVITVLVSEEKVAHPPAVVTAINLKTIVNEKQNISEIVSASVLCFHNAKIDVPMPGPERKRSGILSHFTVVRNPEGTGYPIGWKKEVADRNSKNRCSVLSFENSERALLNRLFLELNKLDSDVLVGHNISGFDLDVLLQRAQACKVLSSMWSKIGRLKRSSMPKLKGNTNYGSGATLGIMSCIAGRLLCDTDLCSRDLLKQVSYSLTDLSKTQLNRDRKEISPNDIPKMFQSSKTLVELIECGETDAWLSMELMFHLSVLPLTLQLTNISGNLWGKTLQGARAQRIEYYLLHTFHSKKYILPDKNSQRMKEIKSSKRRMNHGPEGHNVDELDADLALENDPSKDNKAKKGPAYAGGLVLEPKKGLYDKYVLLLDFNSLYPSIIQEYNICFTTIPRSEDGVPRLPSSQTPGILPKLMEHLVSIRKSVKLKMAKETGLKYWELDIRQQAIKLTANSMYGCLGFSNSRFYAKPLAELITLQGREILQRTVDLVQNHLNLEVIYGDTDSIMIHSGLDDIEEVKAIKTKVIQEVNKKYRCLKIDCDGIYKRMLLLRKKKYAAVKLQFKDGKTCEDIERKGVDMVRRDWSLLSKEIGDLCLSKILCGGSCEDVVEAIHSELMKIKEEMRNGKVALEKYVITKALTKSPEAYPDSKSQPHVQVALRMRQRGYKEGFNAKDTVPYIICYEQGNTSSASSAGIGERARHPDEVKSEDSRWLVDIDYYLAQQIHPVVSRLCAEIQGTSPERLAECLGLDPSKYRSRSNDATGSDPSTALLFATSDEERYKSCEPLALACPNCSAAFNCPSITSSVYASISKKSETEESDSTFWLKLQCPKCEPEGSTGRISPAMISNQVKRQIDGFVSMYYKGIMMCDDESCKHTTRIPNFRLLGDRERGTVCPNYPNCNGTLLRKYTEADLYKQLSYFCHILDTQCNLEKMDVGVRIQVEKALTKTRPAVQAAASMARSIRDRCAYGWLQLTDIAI
UniProt O15151, 23-111 limits assumed: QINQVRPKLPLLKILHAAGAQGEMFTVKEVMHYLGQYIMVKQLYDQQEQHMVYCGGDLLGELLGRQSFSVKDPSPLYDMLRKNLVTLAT
UniProt P28072, 35-239 limits assumed: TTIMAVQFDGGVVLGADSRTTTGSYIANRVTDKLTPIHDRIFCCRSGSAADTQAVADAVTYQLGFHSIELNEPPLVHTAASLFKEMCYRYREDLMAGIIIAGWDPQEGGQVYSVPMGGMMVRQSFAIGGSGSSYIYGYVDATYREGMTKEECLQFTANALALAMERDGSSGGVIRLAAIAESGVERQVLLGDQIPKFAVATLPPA
UniProt Q16539, whole entry: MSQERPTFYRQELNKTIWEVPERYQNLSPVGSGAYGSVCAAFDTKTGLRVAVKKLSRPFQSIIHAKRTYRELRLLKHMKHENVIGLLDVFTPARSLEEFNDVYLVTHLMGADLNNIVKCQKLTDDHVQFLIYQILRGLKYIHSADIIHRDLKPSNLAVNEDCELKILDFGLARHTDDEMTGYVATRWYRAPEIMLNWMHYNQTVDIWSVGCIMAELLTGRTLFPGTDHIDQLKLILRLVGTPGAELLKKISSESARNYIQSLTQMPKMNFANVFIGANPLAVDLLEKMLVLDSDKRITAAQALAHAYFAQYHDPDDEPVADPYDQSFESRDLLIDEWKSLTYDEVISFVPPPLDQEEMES
UniProt P48729, whole entry: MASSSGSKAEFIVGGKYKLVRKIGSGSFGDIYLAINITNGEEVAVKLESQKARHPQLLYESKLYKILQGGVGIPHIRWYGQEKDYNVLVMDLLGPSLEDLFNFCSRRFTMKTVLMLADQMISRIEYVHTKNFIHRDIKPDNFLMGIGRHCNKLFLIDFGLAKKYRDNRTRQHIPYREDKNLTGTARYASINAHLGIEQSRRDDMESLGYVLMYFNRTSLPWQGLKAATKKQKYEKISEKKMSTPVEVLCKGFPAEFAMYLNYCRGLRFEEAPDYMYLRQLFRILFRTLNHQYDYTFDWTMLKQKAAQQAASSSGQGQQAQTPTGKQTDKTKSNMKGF
UniProt P18440, whole entry: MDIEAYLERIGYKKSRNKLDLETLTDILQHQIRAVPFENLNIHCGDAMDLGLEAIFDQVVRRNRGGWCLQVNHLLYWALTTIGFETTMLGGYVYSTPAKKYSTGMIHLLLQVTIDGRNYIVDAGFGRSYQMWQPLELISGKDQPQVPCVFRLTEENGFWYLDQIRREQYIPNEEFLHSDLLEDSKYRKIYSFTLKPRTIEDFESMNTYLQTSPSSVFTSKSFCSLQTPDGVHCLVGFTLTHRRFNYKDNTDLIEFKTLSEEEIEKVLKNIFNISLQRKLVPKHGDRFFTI
UniProt A0A0D3ANQ3, 1-621 partner: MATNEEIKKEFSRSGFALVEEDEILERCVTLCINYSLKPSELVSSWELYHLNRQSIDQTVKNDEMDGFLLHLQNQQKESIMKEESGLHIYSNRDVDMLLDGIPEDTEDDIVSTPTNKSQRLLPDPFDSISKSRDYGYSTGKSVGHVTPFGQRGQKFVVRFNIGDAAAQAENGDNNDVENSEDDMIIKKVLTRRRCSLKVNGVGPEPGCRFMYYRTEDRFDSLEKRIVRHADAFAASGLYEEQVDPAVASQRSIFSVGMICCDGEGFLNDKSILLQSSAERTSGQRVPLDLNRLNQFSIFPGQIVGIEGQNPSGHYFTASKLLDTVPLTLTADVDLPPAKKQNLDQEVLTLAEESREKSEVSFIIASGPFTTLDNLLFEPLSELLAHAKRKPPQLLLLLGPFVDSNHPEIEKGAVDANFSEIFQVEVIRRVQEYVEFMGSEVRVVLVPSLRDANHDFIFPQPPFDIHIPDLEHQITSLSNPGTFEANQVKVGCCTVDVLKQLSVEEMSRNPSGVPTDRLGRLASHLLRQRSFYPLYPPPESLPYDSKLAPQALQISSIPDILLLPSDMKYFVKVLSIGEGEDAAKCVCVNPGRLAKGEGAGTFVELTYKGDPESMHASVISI

SMILES	tested on	test	system	setting	endpoint	value
NC12CC3CC(F)(CC(C1)c1ccccc13)C2	Glutamate NMDA receptor; Grin1/Grin2a (Grin1/Grin2a, Rattus norvegicus, UniProt P35439+Q00959)	ion current, channel blocker, whole-cell patch clamp	tsA201 cells	0.2 mM Mg2+, -65 mV, added: 1 mM glutamate	IC50	21.4 ± 0.56 µM
COc1ccc2[nH]c(C(=O)Nc3ccc(C(CC(C)C)=NNC(=N)N)cc3)cc2c1	RPS6KA3 (Homo sapiens, UniProt P51812)	kinase activity, inhibitor, IMAP fluorescence polarization	–	–	IC50	> 100 µM
COc1ccc2c(c1)O[C@@H](c1ccc(O)cc1)CC2	ALOX5	enzyme activity	cell-free	–	IC50	5.7 µM
CN(C)CCNC(=O)c1cc([N+](=O)[O-])cc2ccc(-c3ccccc3)nc12	NQO2 (Homo sapiens, UniProt P16083)	enzyme activity, inhibitor	–	added: 200 µM NRH, DCPIP, 2 µM BSA	IC50	0.04 ± 0.004 µM
CON(C1CC[C@@]2(C)[C@H](CC[C@@H]3[C@@H]2CC[C@]2(C)[C@@H](c4ccc(=O)oc4)CC[C@]32O)C1)C1OCC(O)C(O)C1O (stereo partly shown)	Sodium/potassium-transporting ATPase subunit alpha-1, with beta-1 subunit (Atp1a1, Rattus norvegicus, UniProt P06685)	Na+/K+ pump current, inhibitor, two-electrode voltage clamp	Xenopus oocytes expressing rat α1/β1	holding potential -60 mV, endogenous current subtracted	IC50	0.063 µM
COc1cc(O)ccc1C(=O)C=Cc1ccc(O)cc1	ALOX5	enzyme activity	cell-free	–	IC50	6.5 µM
CC(C)N(CCc1ccc(Cl)c(Cl)c1)C[C@H](O)COc1ccc(NS(C)(=O)=O)cc1	Glutamate NMDA receptor; Grin1/Grin2b (Grin1/Grin2b, Rattus norvegicus, UniProt P35439+Q00960)	–	–	pH 6.9	IC50	0.19 µM
N#Cc1c(-c2ccc(Cl)cc2Cl)n(-c2nc(-c3ccc(Cl)cc3)c3c(NC(=O)c4ccccc4)nnc-3[nH]2)[nH]c1=O	SNB-19	SRB	–	10 µM	cell growth	31.1%
CC/C=C\C/C=C\CCC/C=C/C=C/C=C\CCCC(=O)O	DNA polymerase (Brassica oleracea var. botrytis, UniProt A0A0D3D890)	enzyme activity, inhibitor	–	–	IC50	> 100 µM
COc1ccc(C2=N[C@@H](c3cccc(Cl)c3)[C@@H](c3ccc(Cl)cc3)N2C(=O)N2CCNC(=O)C2)c(OC(C)C)c1 (relative stereo)	Protein Mdm4, N-terminal domain (MDM4, Homo sapiens, UniProt O15151)	MdmX-p53 binding, fluorescence polarization	–	MdmX residues 23-111	IC50	7 µM
CCOC(=O)c1c(-c2ccc(Cl)cc2Cl)n(-c2nc(-c3ccc(Cl)cc3)c3c(NC(=O)c4ccccc4)nnc-3[nH]2)[nH]c1=O	SR	SRB	–	10 µM	cell growth	7.2%
C=C(C)C(=O)Nc1ccc(-c2c(-c3ccc(Oc4nccc(C)n4)c(F)c3)c3c(N)ncnc3n2C)cc1	MFE-280 (FGFR2-low)	RAS-GTP pulldown	–	concentration not given	RAS-GTP level	no effect
CC(C)CC(NC(=O)C(Cc1ccccc1)NC(=O)c1cnc(C(=O)NC(Cc2ccccc2)C(=O)NC(CC(C)C)B(O)O)cn1)B(O)O (stereo not shown)	PSMB6 (Homo sapiens, UniProt P28072)	caspase-like activity, inhibitor, Proteasome-Glo	MM1.S	24 h	IC50	0.0092 ± 0.00032 µM
CC(C)C[C@H](NC(=O)[C@H](C)NC(=O)[C@H](CCCNC(=N)N)NC(=O)[C@H](CCCNC(=N)N)NC(=O)[C@H](CCCNC(=N)N)NC(=O)[C@H](C)NC(=O)[C@H](CC(C)C)NC(=O)[C@H](CCCNC(=N)N)NC(=O)[C@H](CO)NC(=O)[C@H](CCCCN)NC(=O)[C@H](CO)NC(=O)Cn1cc(COC(=O)[C@]2(C)C=C(C(=O)OC(C)(C)C)C(=O)CC2)nn1)C(=O)O	MAPK14 (Homo sapiens, UniProt Q16539)	enzyme activity, inhibitor, D-SENSOR	–	0.003387 µM	normalized kinase activity	0.945
Cc1ccc(-c2n[nH]cc2-c2ccnc3ccccc23)nc1	CSNK1A1 (Homo sapiens, UniProt P48729)	kinase activity, inhibitor, ADP-Glo	–	added: ATP 10 µM	IC50	> 15 µM
CCOC(=O)Oc1ccc2c(c1OC(=O)OCC)C(=O)c1ccccc1C2=O	NAT1 (Homo sapiens, UniProt P18440)	enzyme activity, inhibitor	recombinant in yeast lysate	added: 10 µM 4-aminobiphenyl and 100 µM acetyl-CoA	IC50	0.996 ± 0.2 µM

Some of these lines once more:
SMILES	tested on	test	system	setting	endpoint	value
Cc1ccc(-c2n[nH]cc2-c2ccnc3ccccc23)nc1	CSNK1A1 (Homo sapiens, UniProt P48729)	kinase activity, inhibitor, ADP-Glo	–	added: ATP 10 µM	IC50	> 15 µM
NC12CC3CC(F)(CC(C1)c1ccccc13)C2	Glutamate NMDA receptor; Grin1/Grin2a (Grin1/Grin2a, Rattus norvegicus, UniProt P35439+Q00959)	ion current, channel blocker, whole-cell patch clamp	tsA201 cells	0.2 mM Mg2+, -65 mV, added: 1 mM glutamate	IC50	21.4 ± 0.56 µM
